# Experimental data of several laboratories.
# Each line is one published result; not all experiments were run side by side. ± gives the spread as reported.
# CYP2C8: Cytochrome P450 2C8 (CYP2C8, Homo sapiens, UniProt P10632)
# Chain of UniProt P10632 (whole entry, looked up): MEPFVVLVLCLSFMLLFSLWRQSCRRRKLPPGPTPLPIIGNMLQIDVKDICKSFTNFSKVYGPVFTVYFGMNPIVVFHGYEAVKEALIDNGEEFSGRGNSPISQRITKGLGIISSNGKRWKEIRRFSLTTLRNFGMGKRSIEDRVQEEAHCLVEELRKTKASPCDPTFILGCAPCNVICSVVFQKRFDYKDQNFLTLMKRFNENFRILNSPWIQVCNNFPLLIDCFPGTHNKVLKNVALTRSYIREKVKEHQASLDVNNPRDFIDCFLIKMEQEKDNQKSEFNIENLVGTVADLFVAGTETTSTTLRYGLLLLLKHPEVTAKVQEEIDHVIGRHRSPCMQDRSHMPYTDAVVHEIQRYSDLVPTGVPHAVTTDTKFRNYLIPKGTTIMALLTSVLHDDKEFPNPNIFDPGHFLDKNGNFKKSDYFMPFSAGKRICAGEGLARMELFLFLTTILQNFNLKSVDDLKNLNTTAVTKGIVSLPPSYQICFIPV
SMILES,target or system,test,test system,setting,how to read,measurement,value
CC(=NNC(=O)COc1ccc2c(C)c(Cc3ccccc3)c(=O)oc2c1C)c1ccc(Br)cc1,HPrEC normal prostate epithelial cells,MTT,,"6.3 µg/mL, 2% serum",,viability,65.7%
O=C(O[C@]12C[C@H]3C[C@H](C[C@H](C3)C1)C2)c1ccc(NCc2cc(O)ccc2O)cc1,Toxoplasma gondii,parasite growth,"HFF, bradyzoite, glutamine-induced",,,EC90,5 µM
CC[C@H](C)[C@H](NC(=O)[C@H](Cc1ccc(O)cc1)NC(=O)[C@@H](NC(=O)[C@@H](N)CCCN=C(N)N)C(C)C)C(=O)N[C@@H](Cc1c[nH]cn1)C(=O)N1CCC[C@H]1C(=O)N[C@@H](Cc1ccccc1)C(=O)O,trypsin,LC-MS,,"20 µM, 120 min, pH 7.4, 25 °C",,proteolytic conversion,99.9 ± 0.2%
O=C(c1ccc(OCCN2CCCCC2)cc1)c1c(-c2ccc(O)cc2)sc2cc(O)ccc12,Toxoplasma gondii,"parasite growth, luciferase reporter","HFF, tachyzoite",72 h,,EC90,55.8 µM
Cc1cc(N)c2c(OCC(C)(C)C(=O)NC(C)C)cccc2n1,Salmonella typhimurium,"reverse mutation, plate incorporation",TA100,"50 µg/plate, without S9",,mean revertant colonies,100 colonies/plate
Cn1c(Cn2ccc(C(F)(F)F)c(Oc3cc(Cl)cc(C#N)c3)c2=O)n[nH]c1=O,HIV-1,,"MT4, IIIB wild type",,baseline: CC50 over EC50,selectivity index,> 20000
Cc1cc(Nc2ncnc3ccc(NC4=NC(C)(C)CO4)cc23)ccc1Oc1ccn2ncnc2c1,CYP2C8,substrate,"human, plasma","oral, 300 mg single dose, day 1",,geometric mean CL/F,121 L/h
Cc1cc(Nc2ccc(S(F)(F)(F)(F)F)cc2)n2nc(C(C)(F)F)nc2n1,Plasmodium falciparum,,P. falciparum malaria patients,"oral, 400 mg",,patients with abdominal pain,0%
Nc1ccn([C@H]2CC[C@@H](CO)O2)c(=O)n1,HIV-1,MTT,"MT4, RT L100I/V179D/Y181C mutant",,baseline: CC50 over EC50,selectivity index,> 344
Cn1cc(-c2ccc(-c3cncc(Cl)c3N3CCC4(CCNC4=O)CC3)cc2)cn1,COLO 205,"gene expression, microarray, measured: IFIT1 mRNA",,"concentration not given, 2 h",baseline: untreated cells,log2 fold change,1.61
Cc1cn([C@H]2C[C@H](N=[N+]=[N-])[C@@H](CO)O2)c(=O)[nH]c1=O,HIV-1,MTT,"MT4, RT L100I/V179D/Y181C mutant",,baseline: CC50 over EC50,selectivity index,> 144
CC(C)=CC(=O)Nc1ccc(C2=C(c3ccc(O)cc3)C3CC(S(=O)(=O)N(CC(F)(F)F)c4ccc(C)cc4)C2O3)cc1 (stereo not shown),MCF-10A,cell viability,,72 (unit not given),,IC50,23.4 ± 1.89 µM
CCOc1cc(CC(=O)N[C@@H](CC(C)C)c2ccccc2N2CCCCC2)ccc1C(=O)O,CYP2C8,substrate,"human, plasma","0.5 mg, day 1",,geometric mean CL/F,45 L/h
CC[C@H]1[C@@H](O)[C@@H]2[C@H](CC[C@]3(C)[C@@H]([C@H](C)CCNC(=O)NS(=O)(=O)c4ccc(C(C)(C)C)cc4)CC[C@@H]23)[C@@]2(C)CC[C@@H](O)C[C@@H]12,"ATP-dependent translocase ABCB1 (ABCB1, Homo sapiens, UniProt P08183)",substrate,"human, plasma","dose not given, with: quinidine",,AUC(0-inf) geometric mean,367 ng·h/mL
Nc1ccn([C@@H]2CS[C@H](CO)O2)c(=O)n1,HIV-1,,"MT4, IIIB wild type",,baseline: CC50 over EC50,selectivity index,> 127
CC(C)C[C@H](NC(=O)C[C@H](O)[C@H](CC(C)C)NC(=O)[C@H](Cc1c[nH]cn1)NC(=O)CNC(=O)[C@@H](NC(=O)[C@H](C)NC(=O)[C@H](Cc1c[nH]c2ccccc12)NC(=O)[C@H](CCC(N)=O)NC(=O)[C@@H](Cc1ccccc1)NC(=O)COCCOCCNC(=O)CCC(C(=O)O)N1CCN(CC(=O)O)CCN(CC(=O)O)CCN(CC(=O)O)CC1)C(C)C)C(N)=O (stereo partly shown) [lutetium-177 labelled],,,"BALB/c nu/nu mice, female, PC-3 xenograft tumour","intravenous, 100 pmol, 4 h, with: PA 300 µg",,tissue uptake,13.2 ± 2.2 %ID/g
CC[C@H](CO)N(CCN(N=O)[C@H](CC)CO)N=O,Salmonella typhimurium,plate incorporation,"TA1535, water","1500 µg/plate, without S9 test 2",,revertant colonies per plate,26.7 ± 5
CNC(=O)c1ccc(-c2cnc3ncc(Cc4ccc5ncccc5c4)n3n2)cc1F,,"measured: Ascites, all grades",cancer patients,"oral, 600 mg twice daily, expansion cohort, any causality",,patients with adverse event,13%
Cc1oc2ccccc2c1Cc1cc(I)c(OCC(=O)O)c(I)c1,"Voltage-gated inwardly rectifying potassium channel KCNH2 (KCNH2, Homo sapiens, UniProt Q12809)","ion current, whole-cell patch clamp",HEK293 expressing hERG1,concentration not given,,effect on inactivation gating,no effect

# Repeated from above:
SMILES,target or system,test,test system,setting,how to read,measurement,value
O=C(c1ccc(OCCN2CCCCC2)cc1)c1c(-c2ccc(O)cc2)sc2cc(O)ccc12,Toxoplasma gondii,"parasite growth, luciferase reporter","HFF, tachyzoite",72 h,,EC90,55.8 µM
Cc1cc(N)c2c(OCC(C)(C)C(=O)NC(C)C)cccc2n1,Salmonella typhimurium,"reverse mutation, plate incorporation",TA100,"50 µg/plate, without S9",,mean revertant colonies,100 colonies/plate
